Published values pooled from the literature.
Compare with care: the assays were run in different laboratories. Values after ≈ are worked out from the molar mass of the structure shown.

| Compound | tested on | test | system | setting | scale | quantity | value |
| --- | --- | --- | --- | --- | --- | --- | --- |
| CNS(=O)(=O)Nc1nccc(Cc2c(C)c3ccc(Oc4ncccc4F)cc3oc2=O)c1F | MeWo | cell viability |  | 7 days |  | IC50 | 10.4 nM |
| Cc1ncsc1-c1ccc(C(C)NC(=O)C2CC(O)CN2C(=O)C(NC(=O)CCCCCCCCCCN2CCCC(Nc3ncc(Cl)c(Nc4ccccc4S(=O)(=O)C(C)C)n3)C2)C(C)(C)C)cc1 (stereo not drawn) | 22Rv1 | RNA-seq, refers to: SMARCAL1 mRNA |  | concentration not given | reference: DMSO | log2 fold change | -1.5 |
| CCN(CC)CC(=O)Nc1cccc(-n2cc(-c3ccc4ccc(-c5cn(-c6cccc(NC(=O)CN(CC)CC)c6)nn5)cc4c3)nn2)c1 | RCC4 | PCR angiogenesis array, refers to: EDN1 |  | 5 x IC50, 4 h, normoxia | reference: untreated | fold regulation | -1.68 |
| C=C(NC(=O)c1csc(-c2nc3c(cc2O)-c2nc(cs2)C(=O)NC(C(C)O)C(=O)NC(=C(C)OC)c2nc(cs2)C(=O)NC2c4nc(cs4)C(=O)NC(COC(=O)c4c5c6c(cccc6n4O)COC(=O)C(OC4CC(C)(O)C(N(C)C)C(C)O4)C2OC5)c2nc-3cs2)n1)C(N)=O (stereo not drawn) | Staphylococcus aureus | broth microdilution | methicillin-resistant isolates |  |  | MIC90 | 0.0312 µg/mL (≈ 0.0217 µM) |
| Cn1ncc2cc(-c3cncc(Cl)c3N3CCC4(CCNC4=O)CC3)ccc21 | LS174T | gene expression, microarray, refers to: LRRC19 mRNA |  | concentration not given, 24 h | reference: untreated cells | log2 fold change | 2.22 |
| COC1CN([C@H]2CC[C@H]([C@@]3(C)Oc4c(Cl)cc(C(=O)NCc5c(SC)cc(C)[nH]c5=O)c(C)c4O3)CC2)C1 |  | RNA-seq, refers to: NLRX1 | human, whole blood | dose not given, 24 h | reference: pretreatment baseline | log2 fold change | 1.48 |
| Nc1ncc(-c2cc(-c3cnn(CC(F)(F)F)c3)ncc2F)nc1C(=O)NC1CNCC(F)C1 (stereo not drawn) | EPHA4 | KINOMEscan |  | 1 µM | reference: DMSO control | remaining binding | 94% |
| CN1CCCNC(=O)c2cccc(c2)C(=O)NCCCN(C)CCCNc2cccc3c2C(=O)c2cccc(c2C3=O)NCCC1 | SAS | RNA-Seq, refers to: TUBGCP5 mRNA |  | 1 µM, 6 h | reference: untreated cells | log2 fold change | -1.14 |
| C=CC(=O)Nc1cccc(Cn2ncc3cnc(Nc4cnn(CCOC)c4)nc32)c1 | LCK human | binding, KINOMEscan |  | 100 nM | lower = stronger binding | percent of control | 95% |

Excerpt of the above:
| Compound | tested on | test | system | setting | scale | quantity | value |
| --- | --- | --- | --- | --- | --- | --- | --- |
| C=C(NC(=O)c1csc(-c2nc3c(cc2O)-c2nc(cs2)C(=O)NC(C(C)O)C(=O)NC(=C(C)OC)c2nc(cs2)C(=O)NC2c4nc(cs4)C(=O)NC(COC(=O)c4c5c6c(cccc6n4O)COC(=O)C(OC4CC(C)(O)C(N(C)C)C(C)O4)C2OC5)c2nc-3cs2)n1)C(N)=O (stereo not drawn) | Staphylococcus aureus | broth microdilution | methicillin-resistant isolates |  |  | MIC90 | 0.0312 µg/mL (≈ 0.0217 µM) |
